Measured values collected from several papers.
A part holds a random share of what one study measured.

Series 1
Target: Homeobox protein Hox-B13, full length (HOXB13, Homo sapiens, UniProt Q92826, residues 1-284)
Chain of UniProt Q92826 (whole entry, looked up): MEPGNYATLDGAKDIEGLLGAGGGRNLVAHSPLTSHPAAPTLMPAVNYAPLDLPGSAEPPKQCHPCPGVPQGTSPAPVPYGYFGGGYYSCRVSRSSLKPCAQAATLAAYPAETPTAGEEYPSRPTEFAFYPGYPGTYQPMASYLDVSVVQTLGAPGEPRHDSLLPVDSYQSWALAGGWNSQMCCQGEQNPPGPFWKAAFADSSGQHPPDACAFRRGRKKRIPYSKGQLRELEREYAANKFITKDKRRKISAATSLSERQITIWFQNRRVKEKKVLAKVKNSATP
Technique: protein-binding microarray
Form: hairpin DNA
Sample: in vitro
Tested at: not given
Notes: whole hairpin DNA, median over replicate spots
Reference: not given
Direction: higher = stronger binding
Oligonucleotide | median fluorescence
GAGGCCGTTTCACGAGGGCCTCCTGGCCCTCGTGAAACGGCCTCACACTC (5mC at 11) | 4690 a.u.
GAGGCCGTTTCGCGAGGGCCTCCTGGCCCTCGCGAAACGGCCTCACACTC (5mC at 11 33) | 4080 a.u.
GAGGCCGTTTGATTGGGGCCTCCTGGCCCCAATCAAACGGCCTCACACTC | 4210 a.u.
GAGGCCGCGTTATTGGGGCCTCCTGGCCCCAATAACGCGGCCTCACACTC (5mC at 8 36) | 4460 a.u.
GAGGCCGTTTTACTGGGGCCTCCTGGCCCCAGTAAAACGGCCTCACACTC | 4500 a.u.
GAGGCCGTTTTCCGAGGGCCTCCTGGCCCTCGGAAAACGGCCTCACACTC | 3760 a.u.
GAGGCCGTTTTACGAGGGCCTCCTGGCCCTCGTAAAACGGCCTCACACTC (5mC at 31) | 5470 a.u.
GAGGCCGTTTTATTGGGGCCTCCTGGCCCCAATAAAACGGCCTCACACTC (5mC at 30) | 5420 a.u.
GAGGCCGTTTCACGAGGGCCTCCTGGCCCTCGTGAAACGGCCTCACACTC | 4380 a.u.
GAGGCCGCGTTACGAGGGCCTCCTGGCCCTCGTAACGCGGCCTCACACTC | 4690 a.u.
GAGGCCGTTGTATTGGGGCCTCCTGGCCCCAATACAACGGCCTCACACTC (5mC at 35) | 4200 a.u.
GAGGCCGTTCGACGAGGGCCTCCTGGCCCTCGTCGAACGGCCTCACACTC (5mC at 34) | 4140 a.u.
GAGGCCGTTTTCGTGGGGCCTCCTGGCCCCACGAAAACGGCCTCACACTC | 3970 a.u.
GAGGCCGTTTTATTGGGGCCTCCTGGCCCCAATAAAACGGCCTCACACTC (5mC at 29) | 4840 a.u.
GAGGCCGTTTTATTGGAGCCTCCTGGCTCCAATAAAACGGCCTCACACTC | 5210 a.u.
GAGGCCGTTTTATCGGGGCCTCCTGGCCCCGATAAAACGGCCTCACACTC (5mC at 30) | 4410 a.u.
GAGGCCGTTTTATTGGTGCCTCCTGGCACCAATAAAACGGCCTCACACTC | 5270 a.u.
GAGGCCGTTTTGCGAGGGCCTCCTGGCCCTCGCAAAACGGCCTCACACTC | 4190 a.u.
GAGGCCGTTTTACGCGGGCCTCCTGGCCCGCGTAAAACGGCCTCACACTC (5mC at 29) | 4490 a.u.
GAGGCCGTCGTACGAGGGCCTCCTGGCCCTCGTACGACGGCCTCACACTC (5mC at 35) | 4090 a.u.
GAGGCCATTTTACGAGGGCCTCCTGGCCCTCGTAAAATGGCCTCACACTC | 5210 a.u.
GAGGCCGTTTTCTTGGGGCCTCCTGGCCCCAAGAAAACGGCCTCACACTC (5mC at 12) | 3760 a.u.
GAGGCCGTTTTCGTGGGGCCTCCTGGCCCCACGAAAACGGCCTCACACTC (5mC at 12 32) | 3990 a.u.
GAGGCCGTTTAATTGGGGCCTCCTGGCCCCAATTAAACGGCCTCACACTC | 5050 a.u.
GAGGCCGTTTTATTGTGGCCTCCTGGCCACAATAAAACGGCCTCACACTC | 4780 a.u.

Series 2
Target: Interferon regulatory factor 3, full length, phosphomimetic (IRF3, Homo sapiens, UniProt Q14653, residues 1-427, S386D/S396D/S398D/S402D/T404D/S405D)
Chain of UniProt Q14653 (whole entry, unmodified, looked up): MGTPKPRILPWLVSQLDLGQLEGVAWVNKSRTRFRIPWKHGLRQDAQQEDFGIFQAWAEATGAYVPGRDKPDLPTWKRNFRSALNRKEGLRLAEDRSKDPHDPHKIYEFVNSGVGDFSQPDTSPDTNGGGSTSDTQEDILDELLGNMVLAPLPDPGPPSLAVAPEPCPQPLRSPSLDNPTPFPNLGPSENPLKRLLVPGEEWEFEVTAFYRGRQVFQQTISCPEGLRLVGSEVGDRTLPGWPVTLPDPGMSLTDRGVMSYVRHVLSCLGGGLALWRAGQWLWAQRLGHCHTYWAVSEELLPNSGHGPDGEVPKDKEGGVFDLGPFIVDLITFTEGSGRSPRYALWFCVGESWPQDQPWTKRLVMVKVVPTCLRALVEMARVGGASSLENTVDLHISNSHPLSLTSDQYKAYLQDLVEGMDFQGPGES
Technique: protein-binding microarray
Form: double-stranded DNA, one strand shown
Sample: in vitro
Tested at: 2540 nM top
Notes: 60-bp whole probe
With: salmon DNA 0.4 mg/ml
Reference: random background probes
Direction: higher = stronger binding
Constant ends, left off below: GCCTAGCAC … GTCTTGATTCGCTTGACGCTGCTG
Oligonucleotide | fitted relative affinity [z-score]
GCTGCCCTCACCATCATCCTGTGCTAG | -0.418
CTGTTTTTGCTTTCCTTCATGTGCTAG | 3.22
GACGAACTGGGGTGTCGAGACGTGCTA | -0.514
GACGGGCTGCTACTGCTGACGTGCTAG | -1.05
GACGCTCTCCTTTTCCTGACGTGCTAG | 3.51
TTTCATTTTTTTTTTCATCAGTGCTAG | 4.78
TTAGGACTGCTTCTCCTATAGTGCTAG | -0.133
TCACAGAAGGGAAACAGGACTGTGCTA | 2.26
TTAGATTTCGGGTTTCGAGTAGTGCTA | 2.57
GACGGTCTCGGTATCGGGGCGTGCTAG | 1.41
TTATATACCTGTATATCTTCGTGCTAG | 0.351
TTAGGTCTCGTTTTCGGTTAGTGCTAG | 3.22
TCATTCCTCTTTCTTTGACTGTGCTAG | 2.63
TCACATTGCCTATTTTTCACTGTGCTA | 0.732
GACGATATCGGGACTGGAGCCGTGCTA | -0.0188
TTAGGACTGCTTATCCTTTAGTGCTAG | -0.212
CTCTCCATGTGTTTAAAGACGTGCTAG | 0.254
GAGGGTATCCTTATCCTGACGTGCTAG | 3.65
GAGGATTTCAGTATCGAGACGTGCTAG | 1.29
GACGATCTCAGTCTAGAGACGTGCTAG | 0.621
CTTCCCCTCTCTTTCCAACTGTGCTAG | 2.37
TTAGAACTGCGTTTCGATTAGTGCTAG | 1.83

Series 3
Target: RNA binding protein fox-1 homolog 2, RRM domain, GST-SBP tag (RBFOX2, Homo sapiens, UniProt O43251-10, residues 100-194)
Technique: RNA Bind-n-Seq
Form: RNA
Sample: in vitro
Tested at: 365 nM
Notes: natural RNA segment, single round, ends assumed
Reference: no-protein control
Direction: higher = stronger binding
Constant ends, left off below: GGGAGUUCUACAGUCCGACGAUC … UGGAAUUCUCGGGUGCCAA
Construct (chain): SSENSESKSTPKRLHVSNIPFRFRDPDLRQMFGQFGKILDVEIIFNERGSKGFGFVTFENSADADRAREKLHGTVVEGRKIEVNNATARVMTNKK
Oligonucleotide | RBNS enrichment (R)
AGAAAAAAACUGGUCAGCUCUAGCCAACAGUGAGGUUUCUUUUCUUCUGCCCUAACUAUUGUGUAGCCUCUUAUGCUGAAAUCGGCUUCUGCUGGCUUCUCCGGCUUUCA | 0.331
AUACAUAUAUACACACUCCUAACAUUCCCACUCGGGAGGCCAAGGCCAGCACAUCUCUAAAUUUGAGGCCAGCCUGCUCUACAAAAAGAAUACCAUUCCAGCCAAAGCUA | 0.543
CGCCACAGCCCUUUUGUCUCUGCAAACUGCCUUCUUCGGAAAGAAGAAGGUGGGAGGAUGUGAAUUGUUAGUUUCUGAGUUUUACCAAAUAAAGUAGAAUAUAAGAAGAA | 0.269
UACACAUCCUUGUUCAGUUUUCUUUUGAUGACUAAGGCUCAGUACCAGCGAGCUGUAGGCCAUGUCACAGAACCGAGGCAGAGCAGUGCUUUGAGUAGGACAACAAGGAA | 0.407
AGGAAGUACUGAGUGGCUGCACCGAGAAAGGACUUGGCUAGUAAGGUUAGAAUGUGCAUCGCGCAUAGCCGAGCAGCCUGCUAGCAGGUGACACACUCCGUGGGGGAGGC | 3.53
GGGUGUUUCUGUGGGUACUCCUCUUACCCCAGCAAAUAAAAGGAAUUGUCUGACCCUAGAGGCAGAUGCUGCACUGCACUACUCCAAUGUCUUCCAUGGAGCCUCAGGUG | 0.539
GCCUGUUGGUCUCUCAUUGGACGUUUUUGGGUCUCACUCAUGCUUACUGAAACAUUGUGCCAAGAAACUCUGUGGGAUUUGUGUCCCUUAAACCAGACUCACUUUUCUGA | 0.38
CCUCUGCUUGUACAGAGCCCAUGGUCGGGACAGUGCCCUGGCCUUUGCCGGGGAGGAGGAUGCUCUGAGAUUCAGGGUGGGGCUGGCAACCCCUGAAGAGAACACUUCCU | 0.287
UCAUAUUAUAGGGGACCAGAUUUGUAAUAUAGAAUUCUCCAUAACAUGAAUGAAAUUAAUUCUGUCCAAGCCAGCAUGGUGGCUUCAUAUUAAGUAGUAACAGAAGUCUG | 32.8
GAGUGAGAGUUUGGAAGGUGUCCAAAUUUAAUGUAGACAUUAUCUUUUGGCUCUGAAGAAGCAAACAUGACUAGAGACGCACCUUGCUGCAGUGUCCAGAAGCGGCCUGU | 0.364
AACUAUGUUUUUCAGCCCUUCAGAAGGGUUCUACUACUGUCCUAUACAAUCAAGUAACUGAAAUUCUUGGGAAGACACUUUGCUCCUCAUCUUUCUCCCCGAAACAAUGU | 0.354
CCAGGGUGAGCGAGGGGUCCAGGGCCUAGAGGUGCUUCCUGGGGGCGGGGGAAUGCAGCCAGUGUCCCCCUCCCCUCUUCCACCCCAGCUCCAGCCCUGGUCUUGUCUUU | 0.578

Series 4
Target: Histone acetyltransferase KAT6A, winged helix 1, GST fusion (KAT6A, Homo sapiens, UniProt Q92794, residues 1-85)
Technique: protein binding microarray
Form: double-stranded DNA, one strand shown
Sample: in vitro
Tested at: not given
Notes: 8-mer, flanks averaged, mean of 2 arrays, mostly near background
Reference: not given
Direction: higher = stronger binding
Residues (chain): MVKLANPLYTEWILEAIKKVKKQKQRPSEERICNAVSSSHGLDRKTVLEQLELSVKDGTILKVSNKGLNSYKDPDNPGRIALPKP
Oligonucleotide | E-score
AGTGGTCA | -0.13
CAGTCTTC | -0.0959
ACCCGATC | 0.0288
ACCGATGA | 0.0333
CAGAGCTA | -0.0617
GAATCCTC | -0.17
GACTATAC | -0.0202
AATGGTGT | -0.287
GCCCCCAC | 0.00566
GGACAAAA | 0.021
AGGTGACA | -0.0658
AGTCAGAC | -0.13
CAACACAC | -0.135
GATTTGGA | -0.0809
AGCCAGAT | -0.229
GGAGTCGA | -0.0793
ACGGTACG | 0.348
GACGTACA | -0.12
AATGTCGT | -0.223

Repeated from above (series 3):
Oligonucleotide | RBNS enrichment (R)
AGAAAAAAACUGGUCAGCUCUAGCCAACAGUGAGGUUUCUUUUCUUCUGCCCUAACUAUUGUGUAGCCUCUUAUGCUGAAAUCGGCUUCUGCUGGCUUCUCCGGCUUUCA | 0.331
AUACAUAUAUACACACUCCUAACAUUCCCACUCGGGAGGCCAAGGCCAGCACAUCUCUAAAUUUGAGGCCAGCCUGCUCUACAAAAAGAAUACCAUUCCAGCCAAAGCUA | 0.543
CGCCACAGCCCUUUUGUCUCUGCAAACUGCCUUCUUCGGAAAGAAGAAGGUGGGAGGAUGUGAAUUGUUAGUUUCUGAGUUUUACCAAAUAAAGUAGAAUAUAAGAAGAA | 0.269
UACACAUCCUUGUUCAGUUUUCUUUUGAUGACUAAGGCUCAGUACCAGCGAGCUGUAGGCCAUGUCACAGAACCGAGGCAGAGCAGUGCUUUGAGUAGGACAACAAGGAA | 0.407
AGGAAGUACUGAGUGGCUGCACCGAGAAAGGACUUGGCUAGUAAGGUUAGAAUGUGCAUCGCGCAUAGCCGAGCAGCCUGCUAGCAGGUGACACACUCCGUGGGGGAGGC | 3.53
GGGUGUUUCUGUGGGUACUCCUCUUACCCCAGCAAAUAAAAGGAAUUGUCUGACCCUAGAGGCAGAUGCUGCACUGCACUACUCCAAUGUCUUCCAUGGAGCCUCAGGUG | 0.539
GCCUGUUGGUCUCUCAUUGGACGUUUUUGGGUCUCACUCAUGCUUACUGAAACAUUGUGCCAAGAAACUCUGUGGGAUUUGUGUCCCUUAAACCAGACUCACUUUUCUGA | 0.38
CCUCUGCUUGUACAGAGCCCAUGGUCGGGACAGUGCCCUGGCCUUUGCCGGGGAGGAGGAUGCUCUGAGAUUCAGGGUGGGGCUGGCAACCCCUGAAGAGAACACUUCCU | 0.287
UCAUAUUAUAGGGGACCAGAUUUGUAAUAUAGAAUUCUCCAUAACAUGAAUGAAAUUAAUUCUGUCCAAGCCAGCAUGGUGGCUUCAUAUUAAGUAGUAACAGAAGUCUG | 32.8
GAGUGAGAGUUUGGAAGGUGUCCAAAUUUAAUGUAGACAUUAUCUUUUGGCUCUGAAGAAGCAAACAUGACUAGAGACGCACCUUGCUGCAGUGUCCAGAAGCGGCCUGU | 0.364
AACUAUGUUUUUCAGCCCUUCAGAAGGGUUCUACUACUGUCCUAUACAAUCAAGUAACUGAAAUUCUUGGGAAGACACUUUGCUCCUCAUCUUUCUCCCCGAAACAAUGU | 0.354
